Measured values of several laboratories.
Numbered parts are unrelated; each lists some results of a single study.
Sequence of UniProt P07333 (whole entry, looked up): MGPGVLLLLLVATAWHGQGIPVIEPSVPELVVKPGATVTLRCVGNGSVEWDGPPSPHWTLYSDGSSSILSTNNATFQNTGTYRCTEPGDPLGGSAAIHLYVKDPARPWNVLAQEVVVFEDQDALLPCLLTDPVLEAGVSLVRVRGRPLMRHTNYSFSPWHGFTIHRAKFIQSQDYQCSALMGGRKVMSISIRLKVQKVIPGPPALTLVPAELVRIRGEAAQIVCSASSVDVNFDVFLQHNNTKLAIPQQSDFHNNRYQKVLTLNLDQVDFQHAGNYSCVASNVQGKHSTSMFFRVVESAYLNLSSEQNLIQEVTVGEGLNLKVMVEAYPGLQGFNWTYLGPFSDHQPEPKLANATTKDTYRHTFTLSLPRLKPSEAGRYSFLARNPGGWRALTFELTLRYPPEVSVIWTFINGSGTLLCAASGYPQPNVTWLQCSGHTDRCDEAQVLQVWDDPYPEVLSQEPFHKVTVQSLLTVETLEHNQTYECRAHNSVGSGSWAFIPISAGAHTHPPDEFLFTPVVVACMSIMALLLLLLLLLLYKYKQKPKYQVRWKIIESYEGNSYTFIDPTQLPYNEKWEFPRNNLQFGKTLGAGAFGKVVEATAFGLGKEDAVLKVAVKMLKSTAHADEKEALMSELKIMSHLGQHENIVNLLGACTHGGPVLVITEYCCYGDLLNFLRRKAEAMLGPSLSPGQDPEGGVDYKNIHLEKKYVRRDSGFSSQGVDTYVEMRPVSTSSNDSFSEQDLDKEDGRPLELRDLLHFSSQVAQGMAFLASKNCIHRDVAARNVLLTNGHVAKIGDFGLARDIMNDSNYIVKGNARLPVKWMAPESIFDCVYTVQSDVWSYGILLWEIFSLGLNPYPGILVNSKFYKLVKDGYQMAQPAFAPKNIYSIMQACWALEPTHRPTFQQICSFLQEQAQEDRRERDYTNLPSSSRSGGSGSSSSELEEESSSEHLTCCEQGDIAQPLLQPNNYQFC
Sequence of UniProt P41240 (whole entry, looked up): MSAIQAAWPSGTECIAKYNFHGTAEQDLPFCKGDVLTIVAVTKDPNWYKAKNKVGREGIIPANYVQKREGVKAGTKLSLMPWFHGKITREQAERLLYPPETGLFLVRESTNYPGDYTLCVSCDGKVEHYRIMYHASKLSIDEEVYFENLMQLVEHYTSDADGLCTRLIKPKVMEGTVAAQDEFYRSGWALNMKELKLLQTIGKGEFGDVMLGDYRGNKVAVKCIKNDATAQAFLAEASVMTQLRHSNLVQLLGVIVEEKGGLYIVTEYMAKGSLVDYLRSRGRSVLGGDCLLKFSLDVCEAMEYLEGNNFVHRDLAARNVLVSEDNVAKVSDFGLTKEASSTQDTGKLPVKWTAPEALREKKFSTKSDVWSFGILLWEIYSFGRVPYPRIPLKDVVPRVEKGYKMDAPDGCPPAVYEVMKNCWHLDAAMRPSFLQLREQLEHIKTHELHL
Sequence of UniProt P16591 (whole entry, looked up): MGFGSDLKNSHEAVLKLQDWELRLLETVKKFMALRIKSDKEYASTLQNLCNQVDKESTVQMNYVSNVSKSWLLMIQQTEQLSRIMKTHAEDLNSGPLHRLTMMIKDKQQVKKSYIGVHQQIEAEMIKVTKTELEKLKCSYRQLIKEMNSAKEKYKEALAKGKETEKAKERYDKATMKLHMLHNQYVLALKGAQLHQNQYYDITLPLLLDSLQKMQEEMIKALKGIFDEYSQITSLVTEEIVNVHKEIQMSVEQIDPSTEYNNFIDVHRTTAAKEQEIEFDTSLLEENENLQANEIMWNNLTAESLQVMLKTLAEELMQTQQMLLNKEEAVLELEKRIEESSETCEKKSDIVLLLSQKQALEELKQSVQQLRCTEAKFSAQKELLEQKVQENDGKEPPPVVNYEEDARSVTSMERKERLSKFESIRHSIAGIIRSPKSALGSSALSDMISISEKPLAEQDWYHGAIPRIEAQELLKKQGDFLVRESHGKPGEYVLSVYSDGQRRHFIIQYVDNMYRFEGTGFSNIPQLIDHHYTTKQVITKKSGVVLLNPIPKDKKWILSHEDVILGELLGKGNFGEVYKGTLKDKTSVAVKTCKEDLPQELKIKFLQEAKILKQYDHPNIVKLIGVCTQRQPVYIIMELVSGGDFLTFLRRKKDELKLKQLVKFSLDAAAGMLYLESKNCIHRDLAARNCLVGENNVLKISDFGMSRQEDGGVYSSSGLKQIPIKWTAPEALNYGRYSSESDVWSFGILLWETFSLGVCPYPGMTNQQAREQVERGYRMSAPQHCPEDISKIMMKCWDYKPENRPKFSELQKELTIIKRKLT
Sequence of UniProt Q96Q40 (whole entry, looked up): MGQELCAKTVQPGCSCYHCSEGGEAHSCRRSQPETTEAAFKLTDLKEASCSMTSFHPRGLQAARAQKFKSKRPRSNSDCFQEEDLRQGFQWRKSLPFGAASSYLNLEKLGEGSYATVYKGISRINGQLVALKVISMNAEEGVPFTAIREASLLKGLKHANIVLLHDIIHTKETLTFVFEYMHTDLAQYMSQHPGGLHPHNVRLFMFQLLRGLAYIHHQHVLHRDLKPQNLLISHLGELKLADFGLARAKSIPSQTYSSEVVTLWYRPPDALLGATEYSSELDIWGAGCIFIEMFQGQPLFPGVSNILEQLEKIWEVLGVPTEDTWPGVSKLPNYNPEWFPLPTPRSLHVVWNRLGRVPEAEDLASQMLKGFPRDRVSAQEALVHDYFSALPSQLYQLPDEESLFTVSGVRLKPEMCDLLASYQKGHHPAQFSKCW
Sequence of UniProt O14965 (whole entry, looked up): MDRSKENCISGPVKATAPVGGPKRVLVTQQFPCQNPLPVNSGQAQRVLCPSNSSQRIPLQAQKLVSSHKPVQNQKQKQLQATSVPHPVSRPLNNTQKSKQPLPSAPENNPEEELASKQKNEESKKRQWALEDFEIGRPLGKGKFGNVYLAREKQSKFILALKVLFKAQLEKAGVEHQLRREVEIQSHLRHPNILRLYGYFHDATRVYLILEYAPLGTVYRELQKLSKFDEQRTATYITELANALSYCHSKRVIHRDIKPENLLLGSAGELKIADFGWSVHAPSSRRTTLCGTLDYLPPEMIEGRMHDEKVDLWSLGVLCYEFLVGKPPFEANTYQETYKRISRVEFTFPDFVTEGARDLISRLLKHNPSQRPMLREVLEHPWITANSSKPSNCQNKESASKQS
Sequence of UniProt O00141 (whole entry, looked up): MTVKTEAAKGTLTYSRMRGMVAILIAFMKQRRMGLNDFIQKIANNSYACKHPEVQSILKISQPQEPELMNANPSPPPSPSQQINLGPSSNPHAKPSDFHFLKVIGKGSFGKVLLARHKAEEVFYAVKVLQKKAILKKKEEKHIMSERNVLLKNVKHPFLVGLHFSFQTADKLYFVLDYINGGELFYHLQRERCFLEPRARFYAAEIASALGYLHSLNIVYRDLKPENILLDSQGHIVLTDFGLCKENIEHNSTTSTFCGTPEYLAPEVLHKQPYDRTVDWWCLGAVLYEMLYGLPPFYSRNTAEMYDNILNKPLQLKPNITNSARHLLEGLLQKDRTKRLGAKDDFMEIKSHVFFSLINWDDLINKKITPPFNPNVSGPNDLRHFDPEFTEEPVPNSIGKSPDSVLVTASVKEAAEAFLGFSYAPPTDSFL

Sample 1
SMILES: C=CCc1ccc(O)c(-c2ccc(O)c(CC=C)c2)c1
ANO1 del476-501: Anoctamin-1 (ANO1, Homo sapiens, UniProt Q5XXA6, del476-501)
Sequence of UniProt Q5XXA6 (whole entry, unmodified, looked up): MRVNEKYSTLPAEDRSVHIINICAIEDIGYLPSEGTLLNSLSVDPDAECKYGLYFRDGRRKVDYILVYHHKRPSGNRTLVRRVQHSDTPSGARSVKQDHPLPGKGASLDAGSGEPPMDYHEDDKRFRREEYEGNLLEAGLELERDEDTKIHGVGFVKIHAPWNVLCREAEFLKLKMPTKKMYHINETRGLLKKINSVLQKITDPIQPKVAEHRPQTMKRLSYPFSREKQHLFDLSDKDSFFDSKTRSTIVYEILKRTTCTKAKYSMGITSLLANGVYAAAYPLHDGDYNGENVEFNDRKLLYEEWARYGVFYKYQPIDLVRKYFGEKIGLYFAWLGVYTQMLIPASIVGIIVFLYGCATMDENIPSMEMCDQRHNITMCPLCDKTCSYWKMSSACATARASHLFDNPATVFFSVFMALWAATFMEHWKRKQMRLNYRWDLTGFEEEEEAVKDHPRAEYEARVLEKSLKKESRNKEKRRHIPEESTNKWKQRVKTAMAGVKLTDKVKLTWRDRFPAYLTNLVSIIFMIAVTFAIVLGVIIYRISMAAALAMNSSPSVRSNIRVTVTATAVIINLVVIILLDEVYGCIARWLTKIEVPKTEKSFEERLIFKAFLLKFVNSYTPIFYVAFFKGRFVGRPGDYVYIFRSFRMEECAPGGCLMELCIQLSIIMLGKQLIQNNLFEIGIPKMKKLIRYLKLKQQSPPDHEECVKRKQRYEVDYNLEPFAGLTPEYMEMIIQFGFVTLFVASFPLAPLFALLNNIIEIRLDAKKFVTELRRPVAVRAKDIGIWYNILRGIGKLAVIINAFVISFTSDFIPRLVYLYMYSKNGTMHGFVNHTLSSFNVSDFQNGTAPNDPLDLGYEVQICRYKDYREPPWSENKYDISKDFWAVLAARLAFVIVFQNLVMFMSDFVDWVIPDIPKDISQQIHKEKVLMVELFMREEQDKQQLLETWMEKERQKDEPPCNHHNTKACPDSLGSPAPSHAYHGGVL
| target | assay | setting | scale | normalized current |
| --- | --- | --- | --- | --- |
| ANO1 del476-501 | chloride current, whole-cell voltage clamp | 1 µM, wild type, I-V at -40 mV, together with: 4 µM Ca2+ |  | -0.343 |
| ANO1 del476-501 | chloride current, whole-cell voltage clamp | 1 µM, wild type, concentration-response at 40 mV, together with: 4 µM Ca2+ |  | 0.356 |
| Anoctamin-1 (ANO1, Homo sapiens, UniProt Q5XXA6, del476-501/E649A) | ion current, inside-out patch clamp | 10 µM, E623A mutant at -20 mV |  | -0.144 |
| Anoctamin-1 (ANO1, Homo sapiens, UniProt Q5XXA6, del476-501/E659A/K629A) | chloride current, inside-out patch clamp | 10 µM, membrane voltage 40 mV |  | 0.329 |
| Anoctamin-1 (ANO1, Homo sapiens, UniProt Q5XXA6, del476-501/F628A) | chloride current, whole-cell voltage clamp | 30 µM, I-V at 40 mV, together with: 4 µM Ca2+ |  | 0.168 |
| TMEM16A (human) K603A/E623A | chloride current, inside-out patch clamp | 10 µM, membrane voltage 120 mV |  | 1 |
| Anoctamin-1 (ANO1, Homo sapiens, UniProt Q5XXA6, del476-501/E649A/R541A) | chloride current, inhibitor, inside-out patch clamp | 10 µM, R515A/E623A mutant at -100 mV |  | -0.455 |
| Anoctamin-1 (ANO1, Homo sapiens, UniProt Q5XXA6, del476-501/F803A) | chloride current, inhibitor, whole-cell voltage clamp | 3 µM | relative to: untreated | 0.78 |

Sample 2
Target: Beta-1 adrenergic receptor (ADRB1, Homo sapiens, UniProt P08588)
Sequence of UniProt P08588 (whole entry, looked up): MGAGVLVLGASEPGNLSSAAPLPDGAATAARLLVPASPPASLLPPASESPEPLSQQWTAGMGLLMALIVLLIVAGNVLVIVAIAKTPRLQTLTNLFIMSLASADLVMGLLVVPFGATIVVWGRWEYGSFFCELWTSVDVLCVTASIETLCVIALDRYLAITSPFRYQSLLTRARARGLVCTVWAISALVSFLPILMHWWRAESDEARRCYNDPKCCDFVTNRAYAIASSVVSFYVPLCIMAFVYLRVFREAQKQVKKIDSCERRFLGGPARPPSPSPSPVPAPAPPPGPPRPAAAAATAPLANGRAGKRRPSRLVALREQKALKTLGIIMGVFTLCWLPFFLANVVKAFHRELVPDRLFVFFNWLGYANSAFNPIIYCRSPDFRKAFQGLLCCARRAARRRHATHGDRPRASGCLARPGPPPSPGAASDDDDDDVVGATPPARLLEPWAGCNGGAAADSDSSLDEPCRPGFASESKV
Action: agonist
| SMILES | Emax [%] |
| --- | --- |
| COc1ccccc1N1CCN(CCCCN[S+](=O)([O-])c2cccc3c(N(C)C)cccc23)CC1 | 54.3 |
| COc1ccccc1N1CCN(CC(O)COc2cccc3ccccc23)CC1 (stereo not shown) | 89.3 |
| CN1CCc2cc(O)c(O)cc2C1Cc1ccc(O)c(O)c1 (stereo not shown) | 84 |
| CC(CCc1ccc(O)cc1)NCCc1ccc(O)c(O)c1 (stereo not shown) | 70.5 |
| CN(C)CCN(Cc1ccc(-c2ccc(CNCCc3ccccc3)cc2)cc1)C(=O)CCC1CCCC1 | 40.6 |
| CN(CCC(N)=O)Cc1ccccc1OCC(O)CN1CCc2ccccc2C1 (stereo not shown) | 92.6 |
| C[C@H](N)[C@H](O)c1cccc(O)c1 | 98.2 |
| N#Cc1ccccc1OCC(O)CNCCNC(=O)Nc1ccccc1 (stereo not shown) | 71 |

Sample 3
Structure (SMILES): O=Nc1c(-c2c(O)[nH]c3cc(Br)ccc23)[nH]c2ccccc12
Observed: enzyme activity
Action: inhibitor
Tested at: 0.5 µM
Relative to: control
| target | remaining activity [%] |
| --- | --- |
| Fibroblast growth factor receptor 4 (FGFR4, Homo sapiens, UniProt P22455) | 79.6 |
| Serine/threonine-protein kinase Sgk1 (SGK1, Homo sapiens, UniProt O00141) | 60.9 |
| Macrophage colony-stimulating factor 1 receptor (CSF1R, Homo sapiens, UniProt P07333) | 74.4 |
| Glycogen synthase kinase-3 alpha (GSK3A, Homo sapiens, UniProt P49840) | 3.6 |
| Tyrosine-protein kinase CSK (CSK, Homo sapiens, UniProt P41240) | 65.8 |
| Ephrin type-B receptor 2 (EPHB2, Homo sapiens, UniProt P29323) | 74.7 |
| SRSF protein kinase 3 (SRPK3, Homo sapiens, UniProt Q9UPE1) | 96.4 |
| Aurora kinase C (AURKC, Homo sapiens, UniProt Q9UQB9) | 51.8 |
| Cytoplasmic tyrosine-protein kinase BMX (BMX, Homo sapiens, UniProt P51813) | 29.2 |
| NUAK family SNF1-like kinase 1 (NUAK1, Homo sapiens, UniProt O60285) | 15.7 |
| Protein kinase C epsilon type (PRKCE, Homo sapiens, UniProt Q02156) | 92.4 |
| G protein-coupled receptor kinase 6 (GRK6, Homo sapiens, UniProt P43250) | 79.9 |

Sample 4
SMILES: O=C(Nc1cccnn1)N1CCC(=Cc2cccc(Oc3ccc(C(F)(F)F)cn3)c2)CC1
Tested at: 1 µM
| target | observed | technique | remaining binding [%] |
| --- | --- | --- | --- |
| MAP kinase-activated protein kinase 2 (MAPKAPK2, Homo sapiens, UniProt P49137) | cell-free assay | competition with immobilised ligand | 87 |
| Dual serine/threonine and tyrosine protein kinase (DSTYK, Homo sapiens, UniProt Q6XUX3) | cell-free assay | competition with immobilised ligand | 69 |
| ALK tyrosine kinase receptor (ALK, Homo sapiens, UniProt Q9UM73, C1156Y) | cell-free assay | competition with immobilised ligand | 100 |
| Serine/threonine-protein kinase TNNI3K (TNNI3K, Homo sapiens, UniProt Q59H18) | cell-free assay | competition with immobilised ligand | 100 |
| Tyrosine-protein kinase Fer (FER, Homo sapiens, UniProt P16591) | cell-free assay | competition with immobilised ligand | 74 |
| Cyclin-dependent kinase 15 (CDK15, Homo sapiens, UniProt Q96Q40) | cell-free assay | competition with immobilised ligand | 100 |
| Receptor-type tyrosine-protein kinase FLT3 (FLT3, Homo sapiens, UniProt P36888, D835V) | cell-free assay | competition with immobilised ligand | 100 |
| Cyclin-G-associated kinase (GAK, Homo sapiens, UniProt O14976) | cell-free assay | competition with immobilised ligand | 100 |
| Epidermal growth factor receptor (EGFR, Homo sapiens, UniProt P00533, A750P/del747-749) | cell-free assay | competition with immobilised ligand | 100 |
| Macrophage colony-stimulating factor 1 receptor, autoinhibited (CSF1R, Homo sapiens, UniProt P07333) | cell-free assay | competition with immobilised ligand | 100 |
| Aurora kinase A (AURKA, Homo sapiens, UniProt O14965) | cell-free assay | competition with immobilised ligand | 100 |
| Tyrosine-protein kinase ABL1, phosphorylated (ABL1, Homo sapiens, UniProt P00519) | cell-free assay | competition with immobilised ligand | 93 |
| Casein kinase I isoform epsilon (CSNK1E, Homo sapiens, UniProt P49674) | cell-free assay | competition with immobilised ligand | 100 |
| Serine/threonine-protein kinase TAO3 (TAOK3, Homo sapiens, UniProt Q9H2K8) | binding | competition with immobilised ligand | 42 |
| Wee1-like protein kinase 2 (WEE2, Homo sapiens, UniProt P0C1S8) | cell-free assay | competition with immobilised ligand | 77 |
| Serine/threonine-protein kinase DCLK2 (DCLK2, Homo sapiens, UniProt Q8N568) | cell-free assay | competition with immobilised ligand | 81 |
| Aurora kinase B (AURKB, Homo sapiens, UniProt Q96GD4) | cell-free assay | competition with immobilised ligand | 100 |
| Serine/threonine-protein kinase SIK1 (SIK1, Homo sapiens, UniProt P57059) |  | competition binding | 100 |
| Serine/threonine-protein kinase VRK2 (VRK2, Homo sapiens, UniProt Q86Y07) | cell-free assay | competition with immobilised ligand | 100 |
| Serine/threonine-protein kinase Sgk2 (SGK2, Homo sapiens, UniProt Q9HBY8) | cell-free assay | competition with immobilised ligand | 100 |
| Phosphatidylinositol 3-kinase catalytic subunit type 3 (PIK3C3, Homo sapiens, UniProt Q8NEB9) | cell-free assay | competition with immobilised ligand | 100 |

Some of these lines once more (sample 4):
| target | observed | technique | remaining binding [%] |
| --- | --- | --- | --- |
| Wee1-like protein kinase 2 (WEE2, Homo sapiens, UniProt P0C1S8) | cell-free assay | competition with immobilised ligand | 77 |
| Serine/threonine-protein kinase VRK2 (VRK2, Homo sapiens, UniProt Q86Y07) | cell-free assay | competition with immobilised ligand | 100 |
| Cyclin-dependent kinase 15 (CDK15, Homo sapiens, UniProt Q96Q40) | cell-free assay | competition with immobilised ligand | 100 |
| Phosphatidylinositol 3-kinase catalytic subunit type 3 (PIK3C3, Homo sapiens, UniProt Q8NEB9) | cell-free assay | competition with immobilised ligand | 100 |
| MAP kinase-activated protein kinase 2 (MAPKAPK2, Homo sapiens, UniProt P49137) | cell-free assay | competition with immobilised ligand | 87 |
| Serine/threonine-protein kinase Sgk2 (SGK2, Homo sapiens, UniProt Q9HBY8) | cell-free assay | competition with immobilised ligand | 100 |
| Serine/threonine-protein kinase TNNI3K (TNNI3K, Homo sapiens, UniProt Q59H18) | cell-free assay | competition with immobilised ligand | 100 |
